{"data": "Results from different studies", "MAP3K9": "Mitogen-activated protein kinase kinase kinase 9 (MAP3K9, Homo sapiens, UniProt P80192)", "note": "Values joined by “and” are separate records of one study, mostly repeats; a detail may differ. ± marks the error that the study gave.", "chain of UniProt P11678 (whole entry, looked up)": "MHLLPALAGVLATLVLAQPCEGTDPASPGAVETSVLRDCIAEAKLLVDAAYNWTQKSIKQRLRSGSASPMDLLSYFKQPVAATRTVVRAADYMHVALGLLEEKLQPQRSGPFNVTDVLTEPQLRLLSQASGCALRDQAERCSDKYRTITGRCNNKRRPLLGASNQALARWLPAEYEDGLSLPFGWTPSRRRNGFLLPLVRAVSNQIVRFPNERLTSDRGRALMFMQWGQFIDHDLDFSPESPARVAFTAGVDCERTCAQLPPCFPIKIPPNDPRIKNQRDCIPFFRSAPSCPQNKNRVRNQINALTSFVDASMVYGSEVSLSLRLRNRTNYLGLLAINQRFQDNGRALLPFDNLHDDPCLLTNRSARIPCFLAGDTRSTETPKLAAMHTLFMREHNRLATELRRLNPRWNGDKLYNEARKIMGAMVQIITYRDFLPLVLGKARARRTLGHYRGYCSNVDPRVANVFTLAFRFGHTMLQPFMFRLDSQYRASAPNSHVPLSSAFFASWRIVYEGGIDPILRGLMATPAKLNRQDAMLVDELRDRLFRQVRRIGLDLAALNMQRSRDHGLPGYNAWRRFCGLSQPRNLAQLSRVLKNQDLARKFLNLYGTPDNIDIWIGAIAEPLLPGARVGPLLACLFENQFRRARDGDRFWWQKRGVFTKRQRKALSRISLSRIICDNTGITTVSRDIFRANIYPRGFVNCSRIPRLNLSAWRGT", "chain of UniProt P80192 (whole entry, looked up)": "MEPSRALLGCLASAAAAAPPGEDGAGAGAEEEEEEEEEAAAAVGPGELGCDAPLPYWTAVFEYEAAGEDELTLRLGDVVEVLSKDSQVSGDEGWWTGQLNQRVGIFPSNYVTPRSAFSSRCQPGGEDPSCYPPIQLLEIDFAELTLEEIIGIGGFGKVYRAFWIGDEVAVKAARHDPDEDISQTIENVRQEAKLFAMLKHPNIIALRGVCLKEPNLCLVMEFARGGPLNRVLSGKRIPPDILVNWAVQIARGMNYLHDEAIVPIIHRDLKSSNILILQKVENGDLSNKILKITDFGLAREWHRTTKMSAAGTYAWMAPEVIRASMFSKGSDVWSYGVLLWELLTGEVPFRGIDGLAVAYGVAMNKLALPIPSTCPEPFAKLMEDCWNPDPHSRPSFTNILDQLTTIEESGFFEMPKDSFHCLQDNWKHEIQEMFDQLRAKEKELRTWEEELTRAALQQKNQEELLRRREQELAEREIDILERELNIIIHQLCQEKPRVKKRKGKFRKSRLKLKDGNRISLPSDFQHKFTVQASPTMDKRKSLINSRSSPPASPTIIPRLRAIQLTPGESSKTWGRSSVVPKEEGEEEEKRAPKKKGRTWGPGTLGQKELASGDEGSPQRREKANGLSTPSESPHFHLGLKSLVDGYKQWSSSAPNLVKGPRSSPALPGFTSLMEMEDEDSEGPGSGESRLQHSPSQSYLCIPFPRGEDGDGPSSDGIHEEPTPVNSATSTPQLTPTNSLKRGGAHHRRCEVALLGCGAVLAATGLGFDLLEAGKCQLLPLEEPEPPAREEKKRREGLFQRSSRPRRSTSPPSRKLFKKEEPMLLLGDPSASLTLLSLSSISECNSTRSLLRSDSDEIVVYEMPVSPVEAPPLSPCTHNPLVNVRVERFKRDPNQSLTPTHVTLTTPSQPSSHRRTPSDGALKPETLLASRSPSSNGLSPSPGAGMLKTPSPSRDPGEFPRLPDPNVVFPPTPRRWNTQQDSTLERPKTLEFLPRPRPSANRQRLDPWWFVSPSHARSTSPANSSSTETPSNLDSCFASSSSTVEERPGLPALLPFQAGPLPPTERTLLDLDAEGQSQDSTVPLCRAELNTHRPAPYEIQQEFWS", "chain of UniProt P36897 (whole entry, looked up)": "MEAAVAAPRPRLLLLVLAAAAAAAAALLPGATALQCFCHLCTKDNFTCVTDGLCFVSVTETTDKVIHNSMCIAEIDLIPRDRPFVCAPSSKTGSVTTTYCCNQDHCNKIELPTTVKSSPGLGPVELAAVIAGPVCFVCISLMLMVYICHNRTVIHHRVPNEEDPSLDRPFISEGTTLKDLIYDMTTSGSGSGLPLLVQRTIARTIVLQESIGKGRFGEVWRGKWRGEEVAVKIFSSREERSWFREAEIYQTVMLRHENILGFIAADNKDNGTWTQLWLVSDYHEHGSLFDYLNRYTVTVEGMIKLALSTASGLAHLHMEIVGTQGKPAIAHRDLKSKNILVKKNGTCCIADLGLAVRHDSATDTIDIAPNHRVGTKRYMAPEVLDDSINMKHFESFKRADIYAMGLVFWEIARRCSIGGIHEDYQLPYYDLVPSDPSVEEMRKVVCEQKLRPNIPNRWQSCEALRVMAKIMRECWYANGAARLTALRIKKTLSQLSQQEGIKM", "chain of UniProt O43781 (whole entry, looked up)": "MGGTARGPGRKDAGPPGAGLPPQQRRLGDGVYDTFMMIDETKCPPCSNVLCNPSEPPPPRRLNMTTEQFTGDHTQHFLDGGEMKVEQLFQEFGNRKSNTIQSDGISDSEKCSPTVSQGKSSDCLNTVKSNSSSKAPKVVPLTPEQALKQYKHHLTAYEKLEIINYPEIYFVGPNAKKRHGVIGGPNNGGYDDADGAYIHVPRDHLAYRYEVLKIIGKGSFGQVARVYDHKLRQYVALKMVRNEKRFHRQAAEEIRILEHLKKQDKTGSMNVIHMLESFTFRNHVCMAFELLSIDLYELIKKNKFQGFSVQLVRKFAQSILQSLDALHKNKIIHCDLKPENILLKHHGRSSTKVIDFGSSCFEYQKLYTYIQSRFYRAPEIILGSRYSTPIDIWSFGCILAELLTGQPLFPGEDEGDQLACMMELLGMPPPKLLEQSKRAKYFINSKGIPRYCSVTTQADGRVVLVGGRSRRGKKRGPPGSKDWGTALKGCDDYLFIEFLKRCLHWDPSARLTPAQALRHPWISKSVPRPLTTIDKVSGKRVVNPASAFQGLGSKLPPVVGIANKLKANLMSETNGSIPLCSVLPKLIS", "chain of UniProt P42685 (whole entry, looked up)": "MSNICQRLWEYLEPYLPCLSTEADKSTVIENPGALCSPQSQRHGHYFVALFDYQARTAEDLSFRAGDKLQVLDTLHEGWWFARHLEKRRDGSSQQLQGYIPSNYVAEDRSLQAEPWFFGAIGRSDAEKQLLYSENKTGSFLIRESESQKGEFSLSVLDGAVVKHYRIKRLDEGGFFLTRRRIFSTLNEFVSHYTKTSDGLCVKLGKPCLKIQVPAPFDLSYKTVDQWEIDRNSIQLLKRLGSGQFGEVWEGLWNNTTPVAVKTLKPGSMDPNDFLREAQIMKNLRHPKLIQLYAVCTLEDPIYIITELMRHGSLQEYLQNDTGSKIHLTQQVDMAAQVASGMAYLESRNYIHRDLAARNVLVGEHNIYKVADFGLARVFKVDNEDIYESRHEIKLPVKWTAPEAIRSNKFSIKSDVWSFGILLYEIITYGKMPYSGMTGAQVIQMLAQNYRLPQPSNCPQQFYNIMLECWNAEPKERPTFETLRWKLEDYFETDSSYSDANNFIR", "chain of UniProt P43403 (whole entry, looked up)": "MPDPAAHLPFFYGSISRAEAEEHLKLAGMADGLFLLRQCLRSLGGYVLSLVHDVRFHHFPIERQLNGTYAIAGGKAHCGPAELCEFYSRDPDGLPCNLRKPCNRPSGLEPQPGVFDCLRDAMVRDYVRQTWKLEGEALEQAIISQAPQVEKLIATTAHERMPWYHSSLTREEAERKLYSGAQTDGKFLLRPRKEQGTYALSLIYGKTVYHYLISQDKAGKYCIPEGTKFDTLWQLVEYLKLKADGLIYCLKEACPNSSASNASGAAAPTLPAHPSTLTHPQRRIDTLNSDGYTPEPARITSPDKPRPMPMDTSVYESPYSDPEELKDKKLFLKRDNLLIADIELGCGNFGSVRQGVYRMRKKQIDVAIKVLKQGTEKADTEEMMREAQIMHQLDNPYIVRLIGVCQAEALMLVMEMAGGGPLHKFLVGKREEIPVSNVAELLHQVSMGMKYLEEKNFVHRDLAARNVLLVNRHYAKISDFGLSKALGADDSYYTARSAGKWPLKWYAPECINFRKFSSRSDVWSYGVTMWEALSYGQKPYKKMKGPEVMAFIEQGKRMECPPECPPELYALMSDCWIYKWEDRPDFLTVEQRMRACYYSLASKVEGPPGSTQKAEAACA", "chain of UniProt Q14164 (whole entry, looked up)": "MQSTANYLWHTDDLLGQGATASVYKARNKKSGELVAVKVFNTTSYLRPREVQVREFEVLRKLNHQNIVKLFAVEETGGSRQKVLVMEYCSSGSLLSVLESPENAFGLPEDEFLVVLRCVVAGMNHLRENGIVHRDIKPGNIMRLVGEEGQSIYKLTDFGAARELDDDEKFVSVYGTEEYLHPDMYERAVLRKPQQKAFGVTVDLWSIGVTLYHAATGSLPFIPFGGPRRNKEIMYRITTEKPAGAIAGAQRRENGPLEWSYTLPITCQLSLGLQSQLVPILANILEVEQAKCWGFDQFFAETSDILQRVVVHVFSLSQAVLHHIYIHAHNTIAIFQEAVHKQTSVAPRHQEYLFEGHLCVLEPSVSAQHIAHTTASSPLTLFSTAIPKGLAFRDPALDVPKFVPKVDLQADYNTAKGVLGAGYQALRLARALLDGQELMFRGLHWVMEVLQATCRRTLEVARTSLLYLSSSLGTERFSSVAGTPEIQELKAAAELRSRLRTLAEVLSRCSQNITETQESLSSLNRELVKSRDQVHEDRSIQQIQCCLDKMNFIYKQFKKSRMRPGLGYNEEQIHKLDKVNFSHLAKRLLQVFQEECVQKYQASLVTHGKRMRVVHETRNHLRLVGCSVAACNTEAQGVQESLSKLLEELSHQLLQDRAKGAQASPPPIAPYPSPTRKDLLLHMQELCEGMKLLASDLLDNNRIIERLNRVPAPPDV"}
{"SMILES": "O=C(NC1CCC1)c1ccc2nc(-c3cccc(NS(=O)(=O)NCCN4CCCCC4)c3)cn2c1", "target": "MAP3K9", "assay": "enzyme activity", "conditions": "10 µM", "remaining activity": "100%"}
{"SMILES": "C=CC(=O)N1CCC[C@@H](n2nc(-c3ccc(Oc4ccccc4)cc3)c3c(N)ncnc32)C1", "target": "ZAP70 (Homo sapiens, UniProt P43403)", "conditions": "0.1 µM", "remaining activity": "311%"}
{"SMILES": "O=C1NC(=O)/C(=C/c2ccc(-c3ccc(F)cc3O)o2)S1", "target": "IKBKE (Homo sapiens, UniProt Q14164)", "assay": "enzyme activity", "conditions": "10 µM", "remaining activity": "40%"}
{"SMILES": "COc1cc(-c2cncc3c2CN(C)Cc2cc(N4CCNCC4)ccc2-3)cc(OC)c1OC", "target": "DYRK3 (Homo sapiens, UniProt O43781)", "assay": "kinase activity", "conditions": "1 µM, human enzyme, with: ATP 10 µM", "how to read": "relative to: DMSO control", "remaining activity": "108%"}
{"SMILES": "COc1cc(F)ccc1-c1ncnc(Nc2cccc(C[S@](C)(=N)=O)c2)n1", "target": "TGFBR1 (Homo sapiens, UniProt P36897)", "assay": "kinase activity", "conditions": "10 µM, with: 10 µM ATP", "remaining activity": "98%"}
{"SMILES": "Cc1cc(Nc2cc(N3CCN(C)CC3)nc(Sc3ccc(NC(=O)C4CC4)cc3)n2)[nH]n1", "target": "MAP3K9", "assay": "kinase activity, KinaseProfiler", "conditions": "0.03 µM, species human", "how to read": "relative to: control", "remaining activity": "70%"}
{"SMILES": "COc1cc(Nc2ncc3c(n2)-c2ccc(Cl)cc2C(c2c(F)cccc2OC)=NC3)ccc1C(=O)O", "target": "PRKCZ", "assay": "kinase activity", "conditions": "1 µM", "remaining activity": "106%"}
{"SMILES": "COc1ccc(F)cc1C(=O)NCc1ccc(-c2nn([C@@H](C)C(F)(F)F)c(N)c2C(N)=O)cc1", "target": "FRK (Homo sapiens, UniProt P42685)", "assay": "kinase activity, inhibitor, HotSpot radiometric", "conditions": "100 nM, with: ATP 10 µM", "remaining activity": "98.2 ± 0.1%"}
{"SMILES": "O=C(O)c1ccc(Nc2ncc3c(n2)-c2ccc(Cl)cc2C(c2c(F)cccc2F)=NC3)cc1", "target": "PKCη(h)", "assay": "kinase activity", "conditions": "1 µM", "remaining activity": "120%"}
{"SMILES": "NC/C(=C\\F)COc1cccc(Cn2c(=S)[nH]c(=O)c3[nH]cnc32)c1", "target": "Eosinophil peroxidase (Homo sapiens, UniProt P11678)", "assay": "H2O2 electrode", "conditions": "5 µM", "how to read": "relative to: control", "remaining activity": "158% and 164% and 126%"}
{"note": "Some of these lines once more:"}
{"SMILES": "Cc1cc(Nc2cc(N3CCN(C)CC3)nc(Sc3ccc(NC(=O)C4CC4)cc3)n2)[nH]n1", "target": "MAP3K9", "assay": "kinase activity, KinaseProfiler", "conditions": "0.03 µM, species human", "how to read": "relative to: control", "remaining activity": "70%"}
